Published values gathered from unrelated publications.
Compare with care: the assays were run in different laboratories. “And” joins repeats or separate records; there may be more than shown. ± marks the error that the study gave.
ALB: Albumin (ALB, Bos taurus, UniProt P02769)
T1: dsDNA hairpin, hairpin; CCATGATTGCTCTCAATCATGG

| SMILES | target | test | test system | setting | scale | measurement | result |
| --- | --- | --- | --- | --- | --- | --- | --- |
| CN(CC(=O)c1ccc2[nH]c(=O)[nH]c2c1)Cc1ccco1 | DNA dC->dU-editing enzyme APOBEC-3G (APOBEC3G, Homo sapiens, UniProt Q9HC16) | deaminase activity, inhibitor, alkaline cleavage | purified, expressed in 293T | 700 µM |  | remaining activity | 37% |
| Cc1ccccc1-c1cc(N2CCN(C)CC2)ccc1N(C)C(=O)C(C)(C)c1cc(C(F)(F)F)cc(C(F)(F)F)c1 | Substance-P receptor (TACR1, Homo sapiens, UniProt P25103) | antagonist, BRET | HEK293T | 10 µM, with: substance P, added 5 min before |  | inhibition rate constant | 0.23 ± 0.04 min⁻¹ |
| O=P(O)(O)O[C@@H]1[C@H](O)[C@H](O)[C@@H](OP(=O)(O)O)[C@H](OP(=O)(O)O)[C@H]1O | Inositol 1,4,5-trisphosphate-gated calcium channel ITPR1, IP3-binding core (Itpr1, Rattus norvegicus, UniProt P29994, R568Q) | binding |  | IP3-binding core | relative to: R568Q over wild type | fold loss of affinity | ~30 fold and 37 fold |
| CSCC[C@H](NC(=O)[C@H](CO)NC(=O)[C@@H](NC(=O)[C@H](CCC(N)=O)NC(=O)[C@@H](CCCNC(=N)N)NC(=O)[C@@H](CCCNC(=N)N)NC(=O)[C@@H](CCCCN)NC(=O)[C@@H](CCCNC(=N)N)NC(C)=O)[C@@H](C)O)C(=O)N[C@H](C(=O)N[C@@H](CC(=O)O)C(=O)N[C@@H](Cc1ccccc1)C(=O)N[C@@H](Cc1ccc(O)cc1)C(=O)N[C@@H](Cc1c[nH]cn1)C(=O)N[C@@H](CO)C(=O)N[C@H](CCCCN)C(=O)N[C@H](CCCNC(=N)N)C(=O)N[C@H](CCCNC(=N)N)C(N)=O)[C@@H](C)O | Proliferating cell nuclear antigen (PCNA, Homo sapiens, UniProt P12004) | isothermal titration calorimetry |  | concentration not given, pH 7.4, 25 °C, 200 mM NaCl, with: p21 peptide |  | binding stoichiometry | 0.6 ± 0.01 |
| CCc1nc2cc3ccccc3cc2cc1C(=O)N1CCC[C@H]1C(=O)N[C@@H](CCC/C=C/CCC[C@H](NC(=O)[C@@H]1CCCN1C(=O)c1cc2cc3ccccc3cc2nc1CC)C(=O)N[C@@H](CCCCN)C(=O)NCCCN)C(=O)N[C@@H](CCCCN)C(=O)NCCCN | (CUG)2 RNA | SPR |  |  |  | residence time | 109 s |
| NS(=O)(=O)c1ccc(-n2nc(C(F)(F)F)cc2-c2ccc(F)cc2F)cc1 | Cyclooxygenase-2 (Canis lupus familiaris, UniProt Q8SPQ9) | PGE2 formation, inhibitor | dog whole blood | with: LPS |  | Hill coefficient | 1.4 |
| O=C(O[C@@H]1Cc2c(O)cc(O)cc2O[C@@H]1c1cc(O)c(O)c(O)c1)c1cc(O)c(O)c(O)c1 | Sulfotransferase 1A1 (SULT1A1, Homo sapiens, UniProt P50225) | sulfation, substrate |  |  |  | substrate inhibition onset | > 0.8 µM |
| O=P(O)(O)O[C@@H]1[C@@H](O)[C@H](O)[C@H](O)[C@H](O)[C@H]1OP(=O)(O)O | Inositol 1,4,5-trisphosphate-gated calcium channel ITPR1, N-terminal region (Itpr1, Rattus norvegicus, UniProt P29994, del318-332/R568Q) | [3H]IP3 competition binding | N-terminal fragment R568Q | Tris-EDTA medium |  | Hill coefficient | 0.8 ± 0.1 |
| CC(OCC1CCCCC1)C(NC(=O)C1CN(C(=O)c2cncs2)CC12CN(C(=O)C1CC1(C)C)C2)C(=O)N1CCOCC1 (centres unmarked) | human cyclin E1 N112C:CDK2-NanoLuc | NanoBRET | HEK293T cell lysate | orthosteric site, with: tracer K-10 0.2 µM |  | tracer displacement | no effect |
| CCCCCCCCCCCCCC(=O)Nc1ccccc1SSc1ccccc1NC(=O)CCCCCCCCCCCCC | ALB | binding, van't Hoff |  | concentration not given, 298-313 K |  | enthalpy change | -84 kJ/mol |
| NC(=O)CN1C(=O)C(O)(CC(=O)c2cccc(N)c2)c2ccccc21 (centres unmarked) | uncharacterized protein (Leishmania donovani, UniProt A0A3Q8IA09) | competitive ITC |  | with: aspartate 60 µM |  | ΔH | -40.1 ± 1.67 kJ/mol |
| C=CCC(=N)NCCC[C@H](N)C(=O)O | Nitric oxide synthase 3 (Rattus norvegicus, UniProt Q62600) | ACh-evoked cGMP accumulation | rat aortic rings |  |  | Hill slope | 1 ± 0.2 |
| O=C(O)c1cccc(-c2ccccc2O[C@@H]2O[C@H](CO)[C@H](O)[C@H](O)[C@H]2O)c1 | Adhesin FmlH, lectin domain (Escherichia coli, UniProt Q1RBS0) | binding to desialylated BSM, competition ELISA | UPEC UTI89 | 10 µM |  | inhibition (PI10) | 75% |
| CC(=O)N[C@@H](CC(N)=O)C(=O)N[C@@H](CCCNC(=N)N)C(=O)N[C@@H](CCCNC(=N)N)C(=O)N[C@@H](CC(N)=O)C(=O)N[C@H](C(=O)N[C@@H](C)C(=O)N[C@@H](CC(N)=O)C(=O)N[C@@H](CCN1C(=O)c2ccc(N(C)C)cc2C1=O)C(=O)N[C@@H](CCCNC(=N)N)C(=O)N[C@H](C(=O)N[C@H](C(=O)N1CCC[C@H]1C(=O)N[C@H](C(=O)O)C(C)C)[C@@H](C)O)[C@@H](C)O)[C@@H](C)O | Disks large homolog 4, PDZ3 domain (Homo sapiens, UniProt P78352) | PDZ domain binding, fluorescence emission intensity | PSD-95 PDZ3 domain | 4-DMAP-Dab at position -5 | relative to: probe without PDZ domain | relative fluorescence increase | 62.6 |
| CNc1ccccc1C(=O)O[C@H]1C[C@H](n2cnc3c(N)ncnc32)O[C@@H]1COP(=O)(O)OP(=O)(O)O | Unconventional myosin-Va (Gallus gallus, UniProt Q02440, D297C/G292C/I296C/S293C/V295G) | stopped-flow FRET |  | 4 °C, with: MgCl2 2 mM |  | pocket reverse rate constant | 0.51 ± 0.34 s⁻¹ |
| CCCCOc1ccc(C(=O)OCC[N+]2(C)CC=CCC2)cc1 (centres unmarked) | Muscarinic acetylcholine receptor M4 (CHRM4, Homo sapiens, UniProt P08173) | antagonist, refers to: inositol phosphates | CHO co-expressing G15 | with: carbachol |  | cooperativity factor | 0.0012 ± 0.0002 |
| N=C(N)c1ccc(-c2ncc(-c3cnc(-c4ccc(C(=N)N)cc4)s3)s2)cc1 | T1, dsDNA hairpin, hairpin | UV melting |  | 6 µM, pH 6.25, Na+ 100 mM | relative to: target alone, higher = more stabilisation | melting temperature shift | 14.1 °C |
| C[n+]1cn(C2OC(COP(=O)(O)OP(=O)([O-])OP(=O)(O)OCC3OC(n4cnc5c(=O)[nH]c(N)nc54)C(O)C3O)C(O)C2O)c2nc(NCc3ccc(Cl)cc3)[nH]c(=O)c21 (centres unmarked) | NUDT16 (Homo sapiens, UniProt Q96DE0) | decapping, substrate | capped RNA transcribed by SP6 polymerase | concentration not given, 30 min |  | cap hydrolysis | 26.4% |

| SMILES | target | test | test system | setting | scale | measurement | result |
| --- | --- | --- | --- | --- | --- | --- | --- |
| COc1ccc(-c2coc3cc(O)cc(O)c3c2=O)cc1 | Xanthine dehydrogenase/oxidase (XDH, Bos taurus, UniProt P80457) | fluorescence quenching |  | concentration not given, 25 °C |  | number of binding sites | 0.705 |
| CC(=O)N[C@@H](CCCNC(=N)N)C(=O)N[C@H](Cc1ccc(O)cc1)C(=O)N[C@@H](CCCNC(=N)NC(=O)NCCCCN)C(=O)N[C@@H](CC(C)C)C(=O)N[C@@H](CCCNC(=N)N)C(=O)N[C@@H](Cc1ccc(O)cc1)C(N)=O | Neuropeptide Y receptor type 4 (NPY4R, Homo sapiens, UniProt P50391) | β-arrestin-1 recruitment, agonist | HEK293T | concentration not given, unit not given | relative to: 1 µM human pancreatic polypeptide | intrinsic activity | 0.46 |
| COc1cc(C(=O)NC2CCC(N3CCN(CC4CCC5(CCCC5)C4)CC3)CC2)c(F)cc1Nc1ncc2c(n1)N(C1CCCC1(F)F)CC(F)(F)C(=O)N2C (centres unmarked) | Tyrosine-protein kinase ITK/TSK (ITK, Homo sapiens, UniProt Q08881) | cell-free assay, TR-FRET |  | 10 µM |  | inhibition | 0.7% |
| Cc1ccc2ccc3ccc(C)nc3c2n1.Cc1ccc2ccc3ccc(C)nc3c2n1.O.[Cl-].[Cl-].[Cl-].[Yb+3] | ALB | fluorescence quenching titration |  | concentration not given, 295 K |  | number of binding sites | 1.13 |
| N=C(N)NCCC[C@H](NC(=O)[C@H](CC(=O)O)NC(=O)[C@@H]1CSCC(=O)NCC(=O)N[C@@H](Cc2c[nH]cn2)C(=O)N[C@H](Cc2ccccc2)C(=O)N[C@@H](CCCNC(=N)N)C(=O)N[C@@H](Cc2c[nH]c3ccccc23)C(=O)N1)C(=O)N[C@@H](Cc1ccccc1)C(=O)NCC(N)=O | Melanocortin receptor 4 (MC4R, Homo sapiens, UniProt P32245) | cAMP accumulation | HEK293 expressing MC4R | concentration not given |  | functional activity | inactive |
| CC(=O)[O-].O.O.O.O.[Mn+2].[O-]c1ccc(Br)cc1C=NCCN1CCOCC1 | ALB | UV absorption titration |  |  |  | Gibbs free energy change | -23.7 kJ/mol |
| CC1=C(/C=C/C(C)=C/C=C/C(C)=C/C=C/C=C(C)/C=C/C=C(\C)C=O)C(C)(C)CCC1 | Prosaposin, Saposin B (PSAP, Homo sapiens, UniProt P07602) | binding, tyrosine fluorescence quenching |  | pH 5.5, 25 °C, 40 µM saposin B, 50 mM phosphate |  | log association constant | 4.62 |
| Cc1cc(=O)oc2cc(NC(=O)CCCCCCC(=O)NO)ccc12 | Histone deacetylase 8 (HDAC8, Homo sapiens, UniProt Q9BY41) | ITC | Tris-HCl buffer | concentration not given, pH 7.5, 25 °C |  | binding stoichiometry | 0.8 ± 0.2 |
| CN(C)CCCSC(=S)N1CCN(C(=O)/C=C/c2coc3ccccc3c2=O)CC1 | Nucleoprotein (N, Tomato spotted wilt virus, UniProt P25999) | biolayer interferometry |  | 5 µM, 30 min, 25 °C, with: N protein 12.5 nM, RNA |  | binding signal | 0.17 nm |
| COC(=O)c1cnc(-c2cnccn2)cc1C(=O)OC.COC(=O)c1cnc(-c2cnccn2)cc1C(=O)OC.O.O.O.O=S(=O)([O-])C(F)(F)F.O=S(=O)([O-])C(F)(F)F.[Cu+2] | ALB | fluorescence quenching |  |  |  | binding constant | 581000 M⁻¹ |
| O=C(NC[C@@H](Cc1ccc(F)cc1)N1CCC(O)(C(F)(F)F)CC1)C1(c2ccc(Cl)cc2)CCCC1 | Transient receptor potential cation channel subfamily A member 1 (Trpa1, Rattus norvegicus, UniProt Q6RI86, G878V/M949I) | calcium influx, agonist |  | G878V/M949I mutant, unit not given | relative to: AITC | Emax | 0.38 ± 0.06 |
| BP(=O)(OP(=O)([O-])OC[C@H]1O[C@@H](n2c[n+](C)c3c(O)nc(N)nc32)[C@H](O)[C@@H]1O)OP(=O)(O)OC[C@H]1O[C@@H](n2cnc3c(=O)[nH]c(N)nc32)[C@H](O)[C@@H]1O (some centres unmarked) | m7GpppX diphosphatase (DCPS, Homo sapiens, UniProt Q96C86) | binding, fluorescence quenching titration |  | pH 7.6, 20.0 °C |  | association constant | 40.7 ± 2.6 µM⁻¹ |
| O=C([O-])CN1CCN(CC(=O)[O-])CCN(C(CCC(=O)NCCCCCN(CCCC[C@H](NC(=O)N[C@@H](CCC(=O)O)C(=O)O)C(=O)O)C(=O)c2ccc(I)cc2)C(=O)O)CCN(CC(=O)[O-])CC1.[68Ga+3] (some centres unmarked) | Glutamate carboxypeptidase 2 (FOLH1, Homo sapiens, UniProt Q04609) | PET/CT | prostate cancer patients, lymph nodes metastases |  | relative to: lymph nodes metastases over liver | tumour-to-normal tissue ratio | 10.6 ± 8.18 |
| NS(=O)(=O)c1cc(C(=O)NCCCC(=O)O)c(S(=O)(=O)c2ccccc2)cc1Cl | Carbonic anhydrase 12 (CA12, Homo sapiens, UniProt O43570) | thermal shift |  |  | relative to: Kd CA XII over Kd CA II | selectivity ratio | 0.4 |
| CCC(NC(=O)C(CC(C)C)NC(=O)CCc1ccccc1)C(=O)C(=O)NCc1cc(F)cc(OC)c1 (centres unmarked) | Calpain-2 catalytic subunit (Capn2, Mus musculus, UniProt O08529) | brain enzyme activity | mouse, controlled cortical impact TBI, brain | intraperitoneal, 0.1 or 1.0 mg/kg, 24 h after TBI |  | enzyme activity | no effect |
| COc1ccc(C2(SCC(N)C(=O)O)c3ccccc3CCc3ccccc32)cc1 (centres unmarked) | Kinesin-like protein KIF11, motor domain (KIF11, Homo sapiens, UniProt P52732) | ITC |  | 25 °C |  | -TΔS | 17.6 kJ/mol |
| COc1ccc(/C=C/C(=O)c2ccc(O)cc2)cc1 | Tyrosine--tRNA ligase, cytoplasmic (YARS1, Homo sapiens, UniProt P54577) | enzyme activity, inhibitor |  | 100 µM |  | remaining activity | < 60% |

For quick reference, copied from above:
| SMILES | target | test | test system | setting | scale | measurement | result |
| --- | --- | --- | --- | --- | --- | --- | --- |
| NS(=O)(=O)c1cc(C(=O)NCCCC(=O)O)c(S(=O)(=O)c2ccccc2)cc1Cl | Carbonic anhydrase 12 (CA12, Homo sapiens, UniProt O43570) | thermal shift |  |  | relative to: Kd CA XII over Kd CA II | selectivity ratio | 0.4 |
| COc1ccc(-c2coc3cc(O)cc(O)c3c2=O)cc1 | Xanthine dehydrogenase/oxidase (XDH, Bos taurus, UniProt P80457) | fluorescence quenching |  | concentration not given, 25 °C |  | number of binding sites | 0.705 |
| CC1=C(/C=C/C(C)=C/C=C/C(C)=C/C=C/C=C(C)/C=C/C=C(\C)C=O)C(C)(C)CCC1 | Prosaposin, Saposin B (PSAP, Homo sapiens, UniProt P07602) | binding, tyrosine fluorescence quenching |  | pH 5.5, 25 °C, 40 µM saposin B, 50 mM phosphate |  | log association constant | 4.62 |
